Measured values of several laboratories.
Parts stem from different laboratories: compare values within a part only. Changes are numbered by the printed parent chain.

Set 1
Target: ABI1, truncated, D143A, DHFR fusion (Arabidopsis thaliana, UniProt P49597)
Method: DHFR PCA, dose-response
Sample: yeast
Notes: Hill fit, not affinity, not high confidence
Added: (+)-ABA, dose series
Direction: lower = more sensitive
Starting sequence: PYL1, truncated, DHFR fusion (Arabidopsis thaliana, UniProt Q8VZS8); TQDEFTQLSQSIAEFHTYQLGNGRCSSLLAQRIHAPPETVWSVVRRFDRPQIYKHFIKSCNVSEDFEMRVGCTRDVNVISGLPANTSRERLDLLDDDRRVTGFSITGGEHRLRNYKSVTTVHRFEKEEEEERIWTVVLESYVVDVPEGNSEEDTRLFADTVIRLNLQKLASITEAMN
Variant	ABA EC50 [µM]
S140H	1100
S117F	3.32
N165I	0.191
L112D	0.00815
H16M	691
R155P	3.85
S140Q	745
T101P	2480
L166S	885
K168P	2.57
D48H	86.4
N149H	216
V137G	13.6
R98P	649
L138E	898
N165V	4.45
D153P	1950

Set 2
Target: Histone acetyltransferase KAT6A, both winged helices, GST fusion (KAT6A, Homo sapiens, UniProt Q92794, residues 1-181)
Method: protein binding microarray
Molecule type: double-stranded DNA, one strand shown
Sample: in vitro
Concentration: not given
Notes: 8-mer, flanks averaged, mean of 2 arrays, mostly near background
Relative to: not given
Direction: higher = stronger binding
Residues (chain): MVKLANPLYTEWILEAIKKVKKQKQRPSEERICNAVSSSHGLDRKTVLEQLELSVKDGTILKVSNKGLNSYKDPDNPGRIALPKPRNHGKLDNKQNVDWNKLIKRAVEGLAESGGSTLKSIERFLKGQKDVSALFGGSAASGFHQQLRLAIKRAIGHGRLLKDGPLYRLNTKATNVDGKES
Oligonucleotide	E-score
ACAACTCC	-0.0383
CTGGGACC	-0.122
CGAAAAAG	0.127
GGTCGCGA	0.281
GAAGTAGC	-0.0402
GTTCAGGA	-0.19
CGGAGCAA	-0.0275
CTGAGGCA	-0.0799
AGTTAGCG	0.0901
CAGACTCG	-0.15
CGGAAGCA	0.158
CCAGTCGG	0.0261
ATAGTATG	-0.153
ATACAAGC	-0.0344
GTACTTGA	-0.0324
ATCGTCCA	0.00155
ACCAATAT	-0.199
AGTACCTG	-0.223
AGGAGGCA	-0.163
AAAGGGTT	-0.0516
CGGCCAAC	0.143
ATACTCCC	-0.0518
AGTCCTGA	-0.194
CCCGGGTA	0.222

Set 3
Target: RNA binding protein fox-1 homolog 2, RRM domain, GST-SBP tag (RBFOX2, Homo sapiens, UniProt O43251-10, residues 100-194)
Method: RNA Bind-n-Seq
Molecule type: RNA
Sample: in vitro
Concentration: 365 nM
Notes: natural RNA segment, single round, ends assumed
Relative to: no-protein control
Direction: higher = stronger binding
Constant ends, left off below: GGGAGUUCUACAGUCCGACGAUC … UGGAAUUCUCGGGUGCCAA
Construct (chain): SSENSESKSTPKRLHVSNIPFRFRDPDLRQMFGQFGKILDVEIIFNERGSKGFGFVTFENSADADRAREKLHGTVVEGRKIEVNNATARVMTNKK
Oligonucleotide	RBNS enrichment (R)
GCUUUAUCAGUAGCCCAGGAUAUAUUUUAUUUUUAGAAUUUUGUGAGCCAGACUUGUAUAUUCUAUUUUACAACUACAAAGGCCUCCUAAGUAUUGUACCUUCAGCGUGC	0.303
ACAGAGUCAGCCUCUAGUAGACCCUGCUCUUUUGCCCCUGGGGCGGGGAGGGUUGGCAGUGGUGGGGCCCAUCCUCUAUCCUGUAGCUCCUGCCGCUGCGAGGCUGAACU	0.353
UGCUGCAAGGACCAGAGCCAGCCCCCAGGAGCCUCAGGGCCCACUUAGGAAGGAUGCCUUGUGCCUAUGGGCCCUUUGGUGACAUGUGGGGCUCUGGAUCCUUGGGUGUC	6.23
CUGGAUGUUUUGCUCUGUUUUGGUACCUGUAAUAUAGGGAAACACAACUUUUUUUGGGAAAGCCCUUUGACCCCAGCUUGCUAGUUGCAUAAUAAUAAAUUUUCUGUUCC	0.834
UGAGAAUGUGACCUUUAAGAAAAAUGAAAACUUUUGUAAAUUAUUGAUGAUUUUGUAAUUCUUAUGACUAAAUUUUCUUUUAAGCAUUUGUAUAUUAAAAUAGCAUACUG	1.11
CGCUCCGUUUGGGGUGACCUGGAACGCCUCUUCUCCCAGCUCCCUCCAGCCAUCAGCAGCCUCUUGUCAAGCUUCUGCCUCGCCCCAGUCUAUCCCCAACCCCAAAUCAA	0.536
UGCUAGGGUCUCCUAGCCCAGUAAGCCAAAUGGGAACUAUAAGCAGAUCAAAAUUUUACACUAGCUUAUUAGAGCCCUAUUAGUUCCUGUCCCAAGUUCUUCAGUUACAA	0.297
CUGGGUGGAGGCAGACCCCGAGCUCGGGGAAGGGGUUUUCCUGCCUUCACGACCCAGAUCUGUGCUGGCCAAAGUCGCUGCGUUUCUCAUCCCCAGCGAGGGUUUCCUCU	0.42
UCAGUGAGACACGCAGUUUGUGUUCAGUUUUUACAUCCUCUGAUUGUUUAUCUUGUGCAGAUAAACACAAAGAGAAGGUGCUUGCUAGCAGGGACACUGCUGCCAUGUCC	0.702
AGGAGUUGAAUUCUUUGGCAAGGUUGGAUUCUGAGGUCCUUAUUAUGUUAAUGAUGGUGCAAUACUCUCACCUGCAGUAGAACUGAGUUCUGCUGCAGCUUGUGUAAAAG	0.544
AUUGGGCUUAAAUCAGUGUAACCUGAUUCAUCCUGGGAUGUAAACCAUUUGAAGUCAGCUAAUUUGACUUUUAUGGCUCUGUCUUUUUCUUUCAUGAAGAACCCUGUUUA	0.272
UCAAAGUACUAAAAAAUGUACUAGAUCAUUAAGACUUAUGUGCUCUUACUGAUUGAAAGAUUUUUUAUGUUUUCCUUGUAAUAAAGGACCUAAACCGAAGGUACCUGAGA	0.636

Set 4
Target: Prothrombin, mature alpha-thrombin (F2, Homo sapiens, UniProt P00734)
Method: aptamer microarray, sandwich
Molecule type: DNA with 2'F-ANA
Sample: in vitro
Concentration: 200 nM
Notes: whole 15-mer aptamer, many near background
Added: Cy3 exosite-II aptamer, 400 nM
Direction: higher = stronger binding
Oligonucleotide: GGTTGGTGTGGTTGG
Modification	mean fluorescence intensity
2'F-ANA at 3 4 6 7 8 11 12 13	721 a.u.
2'F-ANA at 1 2 4 10 11 13 15	49.3 a.u.
2'F-ANA at 1 3 6 8 9 11 13 15	235 a.u.
2'F-ANA at 1 3 5 6 7 9 10 11 12 13 14 15	76.3 a.u.
2'F-ANA at 1 2 3 8 10 11 13 15	64.3 a.u.
2'F-ANA at 4 8 14	109 a.u.
2'F-ANA at 5 9 10 11 14	46.7 a.u.
2'F-ANA at 3 4 6 7 10 13	315 a.u.
2'F-ANA at 1 6 7 9 10 13 14	51.1 a.u.
2'F-ANA at 3 5 6 10 12 14 15	48.6 a.u.
2'F-ANA at 2 4 5 6 7 8 10 11 14	76.9 a.u.
2'F-ANA at 1 2 3 5 6 7 8 9 13 15	56.4 a.u.
2'F-ANA at 1 2 3 5 7 8 10 12 15	65.3 a.u.
2'F-ANA at 2 3 4 5 7 8 13 14	94.5 a.u.
2'F-ANA at 1 2 3 5 9 10 11 12 14	46.3 a.u.
2'F-ANA at 3 6 7 9 11 14	454 a.u.
2'F-ANA at 2 6 8 9 10 12 14	86.2 a.u.

Set 5
Target: Interferon regulatory factor 7, full length, phosphomimetic (IRF7, Homo sapiens, UniProt Q92985, residues 1-503, S101K/S471D/S472D/S475D/S476D/S477D/S483D/S484D/S487D)
Sequence of UniProt Q92985 (whole entry, unmodified, looked up): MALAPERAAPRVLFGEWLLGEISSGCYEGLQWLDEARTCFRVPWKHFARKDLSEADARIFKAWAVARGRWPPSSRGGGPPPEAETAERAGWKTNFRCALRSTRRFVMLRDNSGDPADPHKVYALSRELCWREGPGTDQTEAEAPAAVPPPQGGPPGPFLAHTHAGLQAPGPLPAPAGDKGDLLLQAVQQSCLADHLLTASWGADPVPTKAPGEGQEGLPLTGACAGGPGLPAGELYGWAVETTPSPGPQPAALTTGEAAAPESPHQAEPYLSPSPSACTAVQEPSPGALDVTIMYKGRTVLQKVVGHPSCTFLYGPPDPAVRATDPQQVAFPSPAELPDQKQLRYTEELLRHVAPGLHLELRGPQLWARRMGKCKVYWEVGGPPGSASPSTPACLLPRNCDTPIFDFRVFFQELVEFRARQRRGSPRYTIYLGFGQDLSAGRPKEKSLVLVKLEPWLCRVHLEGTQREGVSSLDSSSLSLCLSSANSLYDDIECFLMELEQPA
Method: protein-binding microarray
Molecule type: double-stranded DNA, one strand shown
Sample: in vitro
Concentration: 250 nM
Notes: 60-bp whole probe
Added: salmon DNA 0.4 mg/ml
Relative to: random background probes
Direction: higher = stronger binding
Constant ends, left off below: GCCTAGCAC … GTCTTGATTCGCTTGACGCTGCTG
Oligonucleotide	log fluorescence [z-score]
GACGATCTCAGTCTCGACACGTGCTAG	0.187
GACGGACTGGGTCTCGGGAGGTGCTAG	-0.29
TCATTTTCCTATGTCATACTGTGCTAG	2.68
GACGATCTCAGTCTCGAGAAGTGCTAG	-0.0608
TTAGAACTGGACTATCGGTTAGTGCTA	-0.363
TGAGATATCGGGTTTCGATTAGTGCTA	6.87
TTAGGTCTCGGTCTCGTTTAGTGCTAG	3.08
TAAGGACTGCTACTGCTTTAGTGCTAG	-0.681
GACGGTTCCGGTTTCGGGTCGTGCTAG	9.72
TCAAGCATGGATCTGGGACTGTGCTAG	-0.613
TCAACTCTCTCCATGTGACTGTGCTAG	-0.0487
TCATATTTAAGGCTAGGACTGTGCTAG	0.498
TTAGATTTCTGGTATCGATTAGTGCTA	1.3
TTGGAACTGAGTTTCGATTAGTGCTAG	7.97
GACGATCTCAGTCTCGGGACGTGCTAG	-0.0722
TTACGTCTCGGTATCGGTTAGTGCTAG	2.12

Some of these lines once more (set 2):
Oligonucleotide	E-score
CCAGTCGG	0.0261
ATAGTATG	-0.153
ATACAAGC	-0.0344
GTACTTGA	-0.0324
ATCGTCCA	0.00155
ACCAATAT	-0.199
AGTACCTG	-0.223
AGGAGGCA	-0.163
